Measured values pooled from the literature.
Every numbered part comes from another study and shows a few of its results, in no order.

Series 1 — technique: RNA Bind-n-Seq; molecule type: RNA; sample: in vitro; tested at: 20 nM; setting: 6-mer, flanks averaged, single round; with: 150 mM KCl; baseline: input library; direction: higher = stronger binding
Target: TAR DNA-binding protein 43, full length, His tag (TARDBP, Homo sapiens, UniProt Q13148, residues 1-414)
Sequence | 6-mer enrichment (R)
UACAUC | 0.552
GUCGAC | 0.87
GGGCUU | 1.72
AGAACA | 0.783
CAACGA | 0.669
CACAGC | 0.711
UACCGC | 0.646
UCUGGC | 0.772
UGAAUU | 0.641
CCCCAG | 0.713
CGGGAA | 2.12
CCUAAG | 0.696
ACUGUG | 0.882
UUCAAA | 0.59
AGCGGC | 1.47
CGUGAU | 0.739
GCCACC | 0.741
GGGUGG | 8.77
CAGCGA | 0.894
UUGGUG | 1.29
AAAACG | 0.623
CCCCAC | 0.654
GACGUG | 1.5
UACCUC | 0.561
CUCCAU | 0.588

Series 2 — technique: RNA Bind-n-Seq; molecule type: RNA; sample: in vitro; tested at: 100 nM; baseline: input RNA pool; direction: higher = stronger binding
Target: RING finger protein unkempt homolog, zinc fingers 1-6, SBP tag (UNK, Homo sapiens, UniProt Q9C0B0, residues 30-357)
Chain of UniProt Q9C0B0 (30-357, looked up): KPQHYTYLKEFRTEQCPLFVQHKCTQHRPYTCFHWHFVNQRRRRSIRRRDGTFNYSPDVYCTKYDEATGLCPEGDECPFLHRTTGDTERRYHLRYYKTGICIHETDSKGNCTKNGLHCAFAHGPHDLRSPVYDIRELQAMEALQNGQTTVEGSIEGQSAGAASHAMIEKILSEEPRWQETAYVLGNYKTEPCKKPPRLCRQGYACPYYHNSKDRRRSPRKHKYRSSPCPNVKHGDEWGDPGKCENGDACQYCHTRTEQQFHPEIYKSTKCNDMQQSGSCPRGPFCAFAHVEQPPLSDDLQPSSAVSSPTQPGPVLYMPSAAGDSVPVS
Setting: RNA with constant flanks, vertebrate orthologous sites, ends assumed
Shared flanks, not repeated: GGGAGUUCUACAGUCCGACGAUC … CAACAGAGGAUUGAGCAUCA
Sequence | bound/input enrichment
AAGCCCUGUGAAGGUCUACUGACCGCUCACUAUUGUCUGGUAUCUGUAAACACUUCUGUUUAGUCCCUUCAUUGUAUAAUUGAUGUUCUUUAAAACUGUCGAUGUAAAACAGGGCUUAUG | 0.604 ratio
AGAUUUAUUUCAUGCCCUGGACUCCCUACCGCACUGAUACUUUAAUAGAGUAUGCCUCUAUAGAAGACUUCCAAAACAGUCGCCAAACAACGACAUACAAACUUCCAAACCGCGUAGAUG | 0.649 ratio
GGCUACAAGAGCUCACAAACUCAAAGGAAAACUAGUCAAGAGUUUCUAAUAGUUAAAAGCUAGGAAAGAUUAGGACAACUUUACAAAUGAGCAAUUAAAAAGAAAAAGGAUAUGGAAACU | 0.545 ratio
GCCUCCUCCCCACUGUGAGAGGAAGUGGGUAAAGGCCUAUGACCCUCAACUGUUCAAUCCAGUAUUUUUUUUUUCCUUUUUUAAAGUUACUGUAUUUAUUAUGACGAUGGUGACUCCCCG | 0.479 ratio
UAGUGCUAAAGCCAAUGGUGGUUCUAAAAUACUAUUUAUUUGUGUCUAUAAGUUUGUACAUAGUAAUACCAACCUCAUUGUUACUGAAUUUUUCAUGGAGGGGGGCAAGUUUGACUUUUG | 1.24 ratio
AUUUCUAGUACUUAAGCUAACAACAGUUCUAAAAUAUUUAUUUGUCUGUAUGUUUGUACAUAGUACCAACCUCAUAUCGUUGCAGAUUUCUUUUUUCCAUGAGUUUGAGUUUGGUUUUAU | 0.42 ratio
UCUCUCGCUUAACUGUGUCCAAAGUUGCUAUGAGGAUUGGAAACAUUCAUUAGUUUCAUGUAGAACUACACUGGCAGGUGCUCAAUUCCCAUCAUAGCAAGAUCAAAAACCAUCACAGUG | 0.917 ratio
CAAUUCAAUGGUUGAAGGUUCAGAACUCAAAAAGGUUCGAUCCAACUCUAGGAUUUACCAUAGAUAUUUUUUACUGGAUGCCGACAUGCAGAGCCUGAGGUGGGAGCCGUCCAAGAAGGA | 0.696 ratio

Series 3 — technique: aptamer microarray, sandwich; molecule type: DNA with 2'F-ANA; sample: in vitro; tested at: 200 nM; with: Cy3 exosite-II aptamer, 400 nM; direction: higher = stronger binding; sequence: GGTTGGTGTGGTTGG
Target: Prothrombin, mature alpha-thrombin (F2, Homo sapiens, UniProt P00734)
Setting: whole 15-mer aptamer, many near background
Modification | mean fluorescence intensity [a.u.]
2'F-ANA at 1 3 5 6 7 10 11 12 13 14 15 | 74.2
2'F-ANA at 1 2 5 7 8 10 12 13 14 | 86.3
2'F-ANA at 1 2 8 9 10 11 12 13 14 | 50.5
2'F-ANA at 1 4 5 7 8 9 15 | 66
2'F-ANA at 1 2 4 9 11 12 14 | 52.9
2'F-ANA at 1 2 7 9 15 | 175
2'F-ANA at 6 7 11 13 | 442
2'F-ANA at 3 5 6 11 12 13 14 15 | 55.1
2'F-ANA at 2 4 9 13 14 15 | 114
2'F-ANA at 1 5 7 8 9 10 11 12 13 | 46.7
2'F-ANA at 2 3 4 6 7 10 12 14 15 | 182
2'F-ANA at 1 4 7 8 9 10 12 13 14 15 | 53.5
2'F-ANA at 3 6 7 9 10 13 | 421
2'F-ANA at 1 5 7 8 9 11 13 14 | 78.9
2'F-ANA at 2 4 5 6 9 10 11 12 13 14 | 49.1
2'F-ANA at 3 4 5 6 12 13 15 | 117
2'F-ANA at 1 2 3 6 11 12 14 | 75.7
2'F-ANA at 2 3 4 5 7 9 11 13 | 65.6
2'F-ANA at 1 2 3 5 7 9 10 13 15 | 47.8
2'F-ANA at 2 3 5 6 8 11 14 | 50.2
2'F-ANA at 2 4 9 10 12 13 14 | 159
2'F-ANA at 2 3 4 7 10 13 14 15 | 176
2'F-ANA at 1 2 4 6 11 12 13 15 | 131

Single results of other studies — molecule type: peptide; direction: direction not given
Molecule | target or system | effect on | technique | organism | strain | setting | enrichment score
GSALKKLFTSTGL | Saccharomyces cerevisiae | peptide binding | yeast competitive growth sequencing | – | cyclin E2-Cln2 fusion | library 1 | -1.14
LQVDDDSGDPLNLVKA | human cyclin D2-Cln2 fusion | yeast growth | competitive growth deep sequencing | Saccharomyces cerevisiae | – | peptide tiling library | -1.17
